Assay results collected from several papers.
Protocols differ between the studies behind these lines. Several values in a cell are separate wells, animals, samples, runs or records.
CES2: Cocaine esterase (CES2, Homo sapiens, UniProt O00748)
Chain of UniProt O00748 (whole entry, looked up): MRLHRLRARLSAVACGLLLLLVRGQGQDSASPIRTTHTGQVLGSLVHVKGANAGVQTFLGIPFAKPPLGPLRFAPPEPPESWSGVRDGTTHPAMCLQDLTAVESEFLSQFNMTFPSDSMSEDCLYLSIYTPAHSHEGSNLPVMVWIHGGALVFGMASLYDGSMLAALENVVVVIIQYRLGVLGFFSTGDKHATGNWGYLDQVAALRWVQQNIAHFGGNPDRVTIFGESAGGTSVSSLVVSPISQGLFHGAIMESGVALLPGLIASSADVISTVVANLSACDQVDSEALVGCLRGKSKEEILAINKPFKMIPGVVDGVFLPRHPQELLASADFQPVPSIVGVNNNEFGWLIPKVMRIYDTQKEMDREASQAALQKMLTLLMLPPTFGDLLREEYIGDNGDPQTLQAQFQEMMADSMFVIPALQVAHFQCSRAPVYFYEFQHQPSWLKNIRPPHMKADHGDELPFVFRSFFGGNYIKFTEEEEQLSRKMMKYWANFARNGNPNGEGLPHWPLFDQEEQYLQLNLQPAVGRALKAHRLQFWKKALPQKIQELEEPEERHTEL
HDAC8: Histone deacetylase 8 (HDAC8, Homo sapiens, UniProt Q9BY41)
Chain of UniProt Q9BY41 (whole entry, looked up): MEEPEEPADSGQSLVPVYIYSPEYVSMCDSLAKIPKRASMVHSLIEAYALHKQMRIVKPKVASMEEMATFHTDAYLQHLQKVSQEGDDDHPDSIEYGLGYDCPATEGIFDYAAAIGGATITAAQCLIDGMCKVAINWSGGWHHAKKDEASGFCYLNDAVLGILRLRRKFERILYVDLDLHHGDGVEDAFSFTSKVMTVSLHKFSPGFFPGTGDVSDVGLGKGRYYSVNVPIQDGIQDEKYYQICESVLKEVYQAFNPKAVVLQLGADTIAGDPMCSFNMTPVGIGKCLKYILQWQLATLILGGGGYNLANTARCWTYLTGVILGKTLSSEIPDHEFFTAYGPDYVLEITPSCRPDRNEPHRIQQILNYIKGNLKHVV
ADRA2B: Alpha-2B adrenergic receptor (ADRA2B, Homo sapiens, UniProt P18089)
Chain of UniProt P18089 (whole entry, looked up): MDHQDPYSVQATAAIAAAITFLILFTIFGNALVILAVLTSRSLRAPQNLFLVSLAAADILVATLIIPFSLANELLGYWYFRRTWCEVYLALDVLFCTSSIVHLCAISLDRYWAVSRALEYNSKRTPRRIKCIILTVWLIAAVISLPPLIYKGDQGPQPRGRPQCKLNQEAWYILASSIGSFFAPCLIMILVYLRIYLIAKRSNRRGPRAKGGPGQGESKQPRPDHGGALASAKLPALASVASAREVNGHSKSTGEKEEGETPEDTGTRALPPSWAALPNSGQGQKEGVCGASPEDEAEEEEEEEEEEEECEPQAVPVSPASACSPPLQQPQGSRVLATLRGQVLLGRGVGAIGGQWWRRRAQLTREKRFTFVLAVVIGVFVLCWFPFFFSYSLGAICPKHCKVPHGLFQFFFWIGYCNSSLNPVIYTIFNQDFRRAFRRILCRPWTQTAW
DRD3: D(3) dopamine receptor (DRD3, Homo sapiens, UniProt P35462)
Chain of UniProt P35462 (whole entry, looked up): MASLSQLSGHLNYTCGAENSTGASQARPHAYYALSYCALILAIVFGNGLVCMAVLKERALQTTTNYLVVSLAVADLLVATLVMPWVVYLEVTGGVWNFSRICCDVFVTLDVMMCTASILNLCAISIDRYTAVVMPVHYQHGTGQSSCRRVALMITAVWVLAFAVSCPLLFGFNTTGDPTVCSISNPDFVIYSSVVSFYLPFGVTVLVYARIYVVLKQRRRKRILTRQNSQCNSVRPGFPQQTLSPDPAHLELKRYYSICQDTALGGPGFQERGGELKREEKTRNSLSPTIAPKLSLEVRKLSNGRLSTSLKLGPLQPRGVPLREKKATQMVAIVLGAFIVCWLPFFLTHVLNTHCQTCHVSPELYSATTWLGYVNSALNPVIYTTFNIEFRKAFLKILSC
HDAC6: Protein deacetylase HDAC6 (HDAC6, Homo sapiens, UniProt Q9UBN7)
Chain of UniProt Q9UBN7 (whole entry, looked up): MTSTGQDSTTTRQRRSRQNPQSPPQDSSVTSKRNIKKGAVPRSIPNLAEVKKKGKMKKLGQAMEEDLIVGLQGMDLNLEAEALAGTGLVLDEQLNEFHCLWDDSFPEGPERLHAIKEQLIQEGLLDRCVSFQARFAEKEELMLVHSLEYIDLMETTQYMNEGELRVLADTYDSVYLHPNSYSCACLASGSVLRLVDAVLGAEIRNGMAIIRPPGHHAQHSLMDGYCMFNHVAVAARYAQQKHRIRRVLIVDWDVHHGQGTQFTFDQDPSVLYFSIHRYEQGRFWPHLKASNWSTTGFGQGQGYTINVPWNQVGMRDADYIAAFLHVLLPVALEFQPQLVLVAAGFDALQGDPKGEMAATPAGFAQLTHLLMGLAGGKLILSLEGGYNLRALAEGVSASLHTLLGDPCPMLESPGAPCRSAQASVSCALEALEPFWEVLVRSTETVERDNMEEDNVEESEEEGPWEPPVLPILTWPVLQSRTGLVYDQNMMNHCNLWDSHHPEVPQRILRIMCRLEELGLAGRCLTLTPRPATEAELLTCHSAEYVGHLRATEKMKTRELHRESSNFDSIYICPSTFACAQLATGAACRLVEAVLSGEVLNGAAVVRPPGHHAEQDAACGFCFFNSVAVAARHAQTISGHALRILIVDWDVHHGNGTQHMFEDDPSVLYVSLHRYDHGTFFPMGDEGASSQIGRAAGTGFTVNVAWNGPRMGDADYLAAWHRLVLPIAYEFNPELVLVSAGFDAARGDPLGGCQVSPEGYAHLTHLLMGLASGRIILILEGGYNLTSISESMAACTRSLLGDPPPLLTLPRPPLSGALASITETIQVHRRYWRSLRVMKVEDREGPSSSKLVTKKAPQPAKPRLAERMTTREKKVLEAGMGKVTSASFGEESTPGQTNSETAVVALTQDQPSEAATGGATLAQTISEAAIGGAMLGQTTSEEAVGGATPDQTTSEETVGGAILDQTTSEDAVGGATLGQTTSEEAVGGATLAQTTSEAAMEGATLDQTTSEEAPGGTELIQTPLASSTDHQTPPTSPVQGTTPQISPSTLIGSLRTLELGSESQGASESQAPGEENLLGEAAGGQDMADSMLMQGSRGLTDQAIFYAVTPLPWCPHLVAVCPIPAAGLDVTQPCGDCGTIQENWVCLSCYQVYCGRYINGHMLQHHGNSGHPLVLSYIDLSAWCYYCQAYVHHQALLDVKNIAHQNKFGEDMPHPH
SCTR: Secretin receptor (SCTR, Homo sapiens, UniProt P47872)
Chain of UniProt P47872 (whole entry, looked up): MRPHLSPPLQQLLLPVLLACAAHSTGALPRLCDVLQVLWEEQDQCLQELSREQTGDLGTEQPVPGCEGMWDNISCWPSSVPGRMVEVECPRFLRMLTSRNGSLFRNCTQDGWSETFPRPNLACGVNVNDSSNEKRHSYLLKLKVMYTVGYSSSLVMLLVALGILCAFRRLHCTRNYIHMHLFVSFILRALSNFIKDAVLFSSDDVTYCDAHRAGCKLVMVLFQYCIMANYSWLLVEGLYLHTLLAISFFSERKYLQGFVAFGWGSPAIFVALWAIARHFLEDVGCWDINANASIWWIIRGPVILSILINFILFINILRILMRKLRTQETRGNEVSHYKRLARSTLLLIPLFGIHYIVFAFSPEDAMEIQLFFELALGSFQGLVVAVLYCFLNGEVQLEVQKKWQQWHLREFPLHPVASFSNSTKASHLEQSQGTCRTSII
Chain of UniProt P18825 (whole entry, looked up): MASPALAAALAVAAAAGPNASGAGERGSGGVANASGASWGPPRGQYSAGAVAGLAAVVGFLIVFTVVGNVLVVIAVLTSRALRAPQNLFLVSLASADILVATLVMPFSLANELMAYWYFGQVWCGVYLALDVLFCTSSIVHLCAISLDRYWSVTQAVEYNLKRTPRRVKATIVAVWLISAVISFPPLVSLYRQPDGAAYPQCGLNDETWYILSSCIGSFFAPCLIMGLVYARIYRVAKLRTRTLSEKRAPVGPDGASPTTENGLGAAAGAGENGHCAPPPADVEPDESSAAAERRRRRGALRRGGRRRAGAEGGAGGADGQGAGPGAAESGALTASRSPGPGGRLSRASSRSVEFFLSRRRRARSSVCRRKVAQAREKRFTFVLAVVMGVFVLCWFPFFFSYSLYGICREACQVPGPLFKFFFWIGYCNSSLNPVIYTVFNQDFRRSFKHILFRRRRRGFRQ
Chain of UniProt P28223 (whole entry, looked up): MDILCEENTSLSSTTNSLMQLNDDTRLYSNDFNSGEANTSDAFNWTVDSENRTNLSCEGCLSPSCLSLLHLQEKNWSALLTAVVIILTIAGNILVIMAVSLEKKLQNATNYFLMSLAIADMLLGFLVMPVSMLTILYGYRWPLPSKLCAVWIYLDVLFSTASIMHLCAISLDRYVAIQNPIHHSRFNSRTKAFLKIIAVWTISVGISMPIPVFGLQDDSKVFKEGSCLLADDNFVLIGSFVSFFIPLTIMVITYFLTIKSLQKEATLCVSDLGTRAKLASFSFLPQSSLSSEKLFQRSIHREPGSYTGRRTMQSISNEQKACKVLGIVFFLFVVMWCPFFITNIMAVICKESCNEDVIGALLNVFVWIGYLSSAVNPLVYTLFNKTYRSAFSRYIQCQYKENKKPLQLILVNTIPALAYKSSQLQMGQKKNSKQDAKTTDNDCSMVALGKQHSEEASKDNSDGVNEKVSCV
Chain of UniProt P35348 (whole entry, looked up): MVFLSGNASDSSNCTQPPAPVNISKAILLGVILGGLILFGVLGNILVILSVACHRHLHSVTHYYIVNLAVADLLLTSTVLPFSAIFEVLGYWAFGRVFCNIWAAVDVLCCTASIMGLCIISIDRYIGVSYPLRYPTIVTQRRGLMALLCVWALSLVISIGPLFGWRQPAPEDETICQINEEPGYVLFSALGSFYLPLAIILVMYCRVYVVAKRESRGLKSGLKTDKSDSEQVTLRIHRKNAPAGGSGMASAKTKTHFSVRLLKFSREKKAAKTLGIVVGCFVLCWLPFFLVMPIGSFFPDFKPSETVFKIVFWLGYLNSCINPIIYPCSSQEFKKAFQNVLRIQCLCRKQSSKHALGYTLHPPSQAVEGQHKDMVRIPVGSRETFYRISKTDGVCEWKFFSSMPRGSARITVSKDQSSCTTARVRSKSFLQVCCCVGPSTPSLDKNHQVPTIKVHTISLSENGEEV

Structure (SMILES) = CC#CCn1c(N2CCC[C@@H](N)C2)nc2c1c(=O)n(Cc1nc(C)c3ccccc3n1)c(=O)n2C; tested on = CES2; test = enzyme activity, inhibitor, fluorescence; conditions = with preincubation; quantity = IC50; result = > 100000 nM
Structure (SMILES) = CCCCC(=O)Nc1ccc(-c2ccc3ncn(CCC)c(=O)c3c2)cn1; tested on = STK17B (Homo sapiens, UniProt O94768); test = binding, competition with immobilised ligand; conditions = 0.5 µM; quantity = remaining binding; result = 100%
Structure (SMILES) = CCc1ccc(C2=CC(C)(C)Sc3ccc(C#Cc4ccc(C(=O)O)cc4)cc32)cc1; tested on = RARG (Homo sapiens, UniProt P13631); test = reporter gene, antagonist, luciferase; quantity = EC50; result = 0.05 nM
Structure (SMILES) = C=CC(=O)N1CCC(COCC(=O)N2CCN(c3nc(-c4cnc(N)nc4C(F)F)nc(N4CCOC[C@@H]4C)n3)CC2)CC1; tested on = EPHA2 (Homo sapiens, UniProt P29317); test = binding, competition with immobilised ligand; conditions = 1 µM; quantity = remaining binding; result = 100%
Structure (SMILES) = CC1=C(O)C(=O)OC1C (stereo not drawn); tested on = OR8D1 (Homo sapiens, UniProt Q8WZ84, R293K); test = cAMP, agonist, luciferase; quantity = EC50; result = 12000 nM
Structure (SMILES) = Cc1cc(Oc2ncccc2CN2CCN(c3ccccc3O)CC2)ccc1-c1c(C)c(=O)[nH]c(=O)n1C; tested on = ADRA1A (Homo sapiens, UniProt P35348); test = ligand displacement, radioligand; quantity = Ki; result = 448 nM
Structure (SMILES) = O=C(NO)c1cccc(OS(=O)(=O)Oc2ccc(C(F)(F)F)cc2)c1; tested on = HDAC8; test = enzyme activity, inhibitor, fluorescence; quantity = Ki; result = 800 nM
Structure (SMILES) = CCN(O)N=Nc1ccc(S(=O)(=O)Nc2cc(C)on2)cc1; test = ABTS scavenging; conditions = 20 µg/mL; quantity = inhibition; result = 6.42%
Structure (SMILES) = Cc1cc(Oc2ncccc2CN2CCN(c3ccc(Cl)cc3)CC2)ccc1-c1c(C)c(=O)[nH]c(=O)n1C; tested on = ADRA2C (Homo sapiens, UniProt P18825); test = ligand displacement, radioligand; quantity = Ki; result = 86 nM and 85.7 nM
Structure (SMILES) = COc1cc(-c2cncc3c2CN(C)Cc2cc(N4CCNCC4)ccc2-3)cc(OC)c1OC; tested on = MAP2K6 (Homo sapiens, UniProt P52564); test = enzyme activity, inhibitor; conditions = 1 µM; quantity = remaining activity; result = 101%
Structure (SMILES) = Cc1cc(Oc2ncccc2CN2CCN(c3ccccc3Cl)CC2)ccc1-c1c(C)c(=O)[nH]c(=O)n1C; tested on = ADRA2B; test = ligand displacement, radioligand; quantity = Ki; result = 85.1 nM
Structure (SMILES) = Cc1ccc(NS(=O)(=O)c2c(C)[nH]c(C)c2C(=O)N2CCC2)cc1Cl; tested on = DRD3; test = G protein activation, antagonist, BRET; quantity = IC50; result = 13000 nM
Structure (SMILES) = Cc1cc(OS(=O)(=O)Oc2ccccc2)cc(C(=O)NO)c1; tested on = HDAC6; test = enzyme activity, inhibitor, fluorescence; quantity = Ki; result = 1700 nM
Structure (SMILES) = CC1=NN(/C(=N/c2nnc(C)s2)Nc2ccc(C)c(C)c2)C(c2cc(F)c(F)c(F)c2F)S1 (stereo not drawn); tested on = SCTR; test = cAMP, agonist, TR-FRET; quantity = EC50; result = 600 nM
Structure (SMILES) = Cc1cc(OS(=O)(=O)Oc2ccc(C(F)(F)F)cc2)cc(C(=O)NO)c1; tested on = HDAC8; test = enzyme activity, inhibitor, fluorescence; quantity = Ki; result = 2960 nM
Structure (SMILES) = CCN(C)C(=O)c1c(C)[nH]c(C)c1S(=O)(=O)Nc1ccc(C(F)(F)F)c(Cl)c1; tested on = DRD3; test = β-arrestin recruitment, antagonist; quantity = IC50; result = 13300 nM
Structure (SMILES) = CN(C)c1ncnc2c1ncn2[C@@H]1O[C@H](CO)[C@@H](O)[C@H]1O; tested on = ADORA3 (Homo sapiens, UniProt P0DMS8, L264M); test = G protein activation, agonist; quantity = EC50; result = 11000 nM
Structure (SMILES) = Cc1cc([C@@H](C)Nc2ccccc2C(=O)O)c2nc(N3CCC(F)(F)CC3)c(C#N)c(=O)n2c1; tested on = IKBKB (Homo sapiens, UniProt O14920); test = binding, competition with immobilised ligand; conditions = 10 µM; quantity = remaining binding; result = 90%
Structure (SMILES) = Cc1cccc(N(O)N=Nc2ccc(S(=O)(=O)Nc3nccs3)cc2)c1; test = ABTS scavenging; conditions = 20 µg/mL; quantity = inhibition; result = 30.5%
Structure (SMILES) = Cc1cc(C)c(OS(=O)(=O)Oc2cccc(C(=O)NO)c2)c(C)c1; tested on = HDAC6; test = enzyme activity, inhibitor, fluorescence; quantity = Ki; result = 248 nM
Structure (SMILES) = Cc1[nH]c(C)c(S(=O)(=O)Nc2ccc(Cl)c(Cl)c2Cl)c1C(=O)N1CCC(F)(F)C1; tested on = DRD3; test = G protein activation, antagonist, BRET; quantity = IC50; result = 1400 nM
Structure (SMILES) = N#C[C@@]12C[C@@H]1[C@@H](n1cnc3c(N[C@H](C4CCC4)C4CC4)nc(I)nc31)[C@H](O)[C@@H]2O; tested on = HTR2A (Homo sapiens, UniProt P28223); test = calcium signal, antagonist; quantity = Kb; result = > 10000 nM
Structure (SMILES) = CCc1ccc(/N=C(/Nc2nnc(C)s2)N2N=C(C)SC2c2ccc(C)cc2)cc1 (stereo not drawn); tested on = SCTR; test = cAMP, agonist, TR-FRET; quantity = EC50; result = 26400 nM
Structure (SMILES) = O=C(c1cc(Cc2n[nH]c(=O)c3ccccc23)ccc1F)N1CCN(C(=O)C2CC2)CC1; tested on = CES2; test = enzyme activity, inhibitor, fluorescence; conditions = with preincubation; quantity = IC50; result = > 100000 nM
Structure (SMILES) = CC(=NNC(=O)c1ccncc1)c1ccc(Nc2nnc(-c3ccc(Cl)cc3)c3ccccc23)cc1; tested on = MCF7; test = cell growth or viability, MTT; conditions = 0.156 µM; quantity = cell death; result = 75.4%
Structure (SMILES) = CC1=NN(/C(=N/c2nnc(C)s2)Nc2ccc(C)c(C)c2)C(c2cc(F)c(F)c(F)c2)S1 (stereo not drawn); tested on = SCTR; test = cAMP, agonist, TR-FRET; quantity = EC50; result = 50 nM
Structure (SMILES) = CC(C)c1cccc(OS(=O)(=O)Oc2cc(F)cc(C(=O)NO)c2)c1; tested on = HDAC6; test = enzyme activity, inhibitor, fluorescence; quantity = Ki; result = 370 nM
Structure (SMILES) = COc1ccccc1N1CCN(Cc2cccnc2Oc2ccc(-c3c(C)c(=O)[nH]c(=O)n3C)c(C)c2)CC1; tested on = ADRA2B; test = ligand displacement, radioligand; quantity = Ki; result = 116 nM
Structure (SMILES) = CC1=NN(/C(=N/c2nnc(C)s2)Nc2ccc(C)c(C)c2)C(c2ccc(-c3ccccc3C(F)(F)F)cc2)S1 (stereo not drawn); tested on = SCTR; test = cAMP, agonist, TR-FRET; quantity = EC50; result = 400 nM
Structure (SMILES) = Cc1cc(Oc2ncccc2CN2CCN(c3ccccc3[N+](=O)[O-])CC2)ccc1-c1c(C)c(=O)[nH]c(=O)n1C; tested on = ADRA2B; test = ligand displacement, radioligand; quantity = Ki; result = 235 nM
Structure (SMILES) = O=C(NO)c1cccc(OS(=O)(=O)Oc2ccc3ccccc3c2)c1; tested on = HDAC1 (Homo sapiens, UniProt Q13547); test = enzyme activity, inhibitor, fluorescence; quantity = Ki; result = 1020 nM
Structure (SMILES) = Cc1cc(Oc2ncccc2CN2CCN(CCc3ccccc3)CC2)ccc1-c1c(C)c(=O)[nH]c(=O)n1C; tested on = ADRA2B; test = ligand displacement, radioligand; quantity = Ki; result = 2300 nM
Structure (SMILES) = Cc1cc(OS(=O)(=O)Oc2ccc(Oc3ccccc3)cc2)cc(C(=O)NO)c1; tested on = HDAC8; test = enzyme activity, inhibitor, fluorescence; quantity = Ki; result = 3080 nM
Structure (SMILES) = Cc1ccc(NS(=O)(=O)c2c(C)[nH]c(C)c2C(=O)N2CCC(F)(F)C2)cc1Cl; tested on = DRD3; test = G protein activation, antagonist, BRET; quantity = IC50; result = 7300 nM
Structure (SMILES) = Cc1cc(Oc2ncccc2CN2CCN(c3ccc(F)c(F)c3)CC2)ccc1-c1c(C)c(=O)[nH]c(=O)n1C; tested on = ADRA2B; test = ligand displacement, radioligand; quantity = Ki; result = 283 nM
Structure (SMILES) = CC(=NNC(=O)c1cccnc1)c1ccc(Nc2nnc(-c3ccc(Cl)cc3)c3ccccc23)cc1; tested on = MCF7; test = cell growth or viability, MTT; conditions = 2.5 µM, 24 h; quantity = viability; result = 14.8%
Structure (SMILES) = Cc1[nH]c(C)c(S(=O)(=O)Nc2ccc(C(F)(F)F)c(Cl)c2Cl)c1C(=O)N1CCC(F)(F)C1; tested on = DRD3; test = G protein activation, antagonist, BRET; quantity = IC50; result = 45 nM
Structure (SMILES) = Cc1cnc(-c2ccc(-c3ccc(NC(=O)Nc4c(F)cc(F)cc4F)cc3F)c3c2C(=O)NC3)[nH]1; tested on = MET (Homo sapiens, UniProt P08581); test = binding, competition with immobilised ligand; quantity = Kd; result = 8.1 nM
Structure (SMILES) = Cc1[nH]c(C)c(S(=O)(=O)Nc2ccc(C(F)(F)F)c(Cl)c2)c1C(=O)N1C[C@@H](F)[C@H](F)C1 (relative stereo); tested on = DRD3; test = β-arrestin recruitment, antagonist; quantity = IC50; result = 2900 nM
Structure (SMILES) = Cc1cc(Oc2ncccc2CN2CCN(c3ccc(F)cc3F)CC2)ccc1-c1c(C)c(=O)[nH]c(=O)n1C; tested on = ADRA2B; test = ligand displacement, radioligand; quantity = Ki; result = 427 nM
Structure (SMILES) = Cc1[nH]c(C)c(S(=O)(=O)Nc2ccc(C(F)(F)F)c(Cl)c2)c1C(=O)N1CCCC1; tested on = DRD3; test = G protein activation, antagonist, BRET; quantity = IC50; result = 2200 nM
Structure (SMILES) = CNc1ncc2c(/C=C/C(=O)N3CCC(OC)CC3)nn(Cc3cccc(C(F)(F)F)c3)c2n1; tested on = Cyclin-dependent kinase 6, with cyclin D3 (CDK6, Homo sapiens, UniProt Q00534); test = enzyme activity, inhibitor, radiometric; conditions = 1 µM; quantity = remaining activity; result = 87%

For quick reference, copied from above:
Structure (SMILES) = O=C(NO)c1cccc(OS(=O)(=O)Oc2ccc3ccccc3c2)c1; tested on = HDAC1 (Homo sapiens, UniProt Q13547); test = enzyme activity, inhibitor, fluorescence; quantity = Ki; result = 1020 nM
Structure (SMILES) = Cc1cc(Oc2ncccc2CN2CCN(c3ccc(Cl)cc3)CC2)ccc1-c1c(C)c(=O)[nH]c(=O)n1C; tested on = ADRA2C (Homo sapiens, UniProt P18825); test = ligand displacement, radioligand; quantity = Ki; result = 86 nM and 85.7 nM
Structure (SMILES) = CCc1ccc(C2=CC(C)(C)Sc3ccc(C#Cc4ccc(C(=O)O)cc4)cc32)cc1; tested on = RARG (Homo sapiens, UniProt P13631); test = reporter gene, antagonist, luciferase; quantity = EC50; result = 0.05 nM
Structure (SMILES) = Cc1cc(OS(=O)(=O)Oc2ccccc2)cc(C(=O)NO)c1; tested on = HDAC6; test = enzyme activity, inhibitor, fluorescence; quantity = Ki; result = 1700 nM
Structure (SMILES) = CC(=NNC(=O)c1ccncc1)c1ccc(Nc2nnc(-c3ccc(Cl)cc3)c3ccccc23)cc1; tested on = MCF7; test = cell growth or viability, MTT; conditions = 0.156 µM; quantity = cell death; result = 75.4%
Structure (SMILES) = CC(=NNC(=O)c1cccnc1)c1ccc(Nc2nnc(-c3ccc(Cl)cc3)c3ccccc23)cc1; tested on = MCF7; test = cell growth or viability, MTT; conditions = 2.5 µM, 24 h; quantity = viability; result = 14.8%
Structure (SMILES) = Cc1cc(C)c(OS(=O)(=O)Oc2cccc(C(=O)NO)c2)c(C)c1; tested on = HDAC6; test = enzyme activity, inhibitor, fluorescence; quantity = Ki; result = 248 nM
